# Measured values pooled from the literature.
# Each numbered part is a random draw from the data of one study; scales do not carry over between parts.

# Sample 1 — technique: EMSA with sequencing; molecule type: double-stranded DNA, one strand shown; matrix: in vitro; tested at: 10 and 20 nM; relative to: negative control set to 0; direction: higher = stronger binding
# Target: Hepatocyte nuclear factor 3-alpha (Foxa1, Mus musculus, UniProt P35582, residues 1-468, full length assumed)
# Sequence of UniProt P35582 (whole entry, looked up): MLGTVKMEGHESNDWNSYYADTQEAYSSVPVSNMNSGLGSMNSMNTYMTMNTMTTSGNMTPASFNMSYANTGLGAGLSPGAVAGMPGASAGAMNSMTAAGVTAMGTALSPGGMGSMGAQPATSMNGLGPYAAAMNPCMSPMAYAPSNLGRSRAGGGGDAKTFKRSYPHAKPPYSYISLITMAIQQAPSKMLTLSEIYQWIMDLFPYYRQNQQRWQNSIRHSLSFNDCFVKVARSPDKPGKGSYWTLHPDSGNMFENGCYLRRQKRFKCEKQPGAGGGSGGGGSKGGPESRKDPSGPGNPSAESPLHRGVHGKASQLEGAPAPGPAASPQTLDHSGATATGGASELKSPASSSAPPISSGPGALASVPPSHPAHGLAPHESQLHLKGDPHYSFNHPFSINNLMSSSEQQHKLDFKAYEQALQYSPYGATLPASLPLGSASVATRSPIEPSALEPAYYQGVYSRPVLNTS
# Setting: whole designed probe, mean of two concentrations, ends assumed
# Constant ends, left off below: GTGAGCGGTGCCCATTGATGGGGAAC … TTTCACTGGGATCGTGGGGAC
Strand,normalised bound fraction
ATCTTCCCCCTCTTCCTTGCCCCACCAGCTCACCTACGGGGGTTATTTGCAGATAGGAAAATAAATAAAGCCGGCATTCGTTAACGCAGTTCACGCGCATACTGCTGTTTGCTCTGGATCTAACATGGTCCTTTGGCGAGGCGTGGCTCCGGGAGAGCAAAGCACCGTGTCAGGGCCATGATCCGGGGTGGCC,0.352 ratio
ATCTTCCCCCTCTTCCTTGCCCCACCAGCTCACCTTCCCGGGTTATTTGCACAAAGGAAAATAAATAAAGCCGGCATTCGTTAACGCAGTTCACGCGCATACTGCTGTTTGCTCTGGATCTAACATGGTCCTTTGGCGACGCCAGGCTCCGGGAGAGCAAAGCACCGTGTCAGGGCCATGATCCGGGGTGGCC,0.377 ratio
GAGCTGCTTGCAATTGAGTTGTATGTATGCTTCCACTTAATACGTCCTGCCGAGCCTGTAAGCCAACACTTCCGGCCAGGAATCTGCCCTCTGTGTTTACCTACTCTCTTTTTATGTCTTATTCCCAGAATGACTGGGGACCAAAGGAATCCTTTGCAGGAGTTTTCTCCAGACAGACAGTTCCACATGCTAG,0.253 ratio
TCGGCCAGCCTGGCTTCTGCGCCCCGCCAGGAGGTCGCGGAGCGGAGCGCGGCCAGGAAGTGAGCTGAGAGTGACAGCTCCCCCCACGCGAGAATAAACAAACATCCACACACTGGCTCTATGACTCATTCTCTTTCTTTCGGGAGGAGGGGAGAAAGGAGCGGGAGGGCGGGCGGGCAGGGGAGAGGCAGGC,0.383 ratio
TAGTTCTTTCTTTTGTTTCCACCTTCTTGGATTCATCAAGTATTTTTTAGTATTCCATTTTATCTCATCTGTTATCTTTTGCTGTATTATTTGTATTTACTTTTGGGATTACAATATGCATCCTTAATTTAGCATGGTCTACTTGAAATTAATAACATACTACTTTGTTGTATAATGTAAGAATTTTACTAAT,0.372 ratio
ATCTTCCCCCTCTTCCTTGCCCCACCAGCTCACCTTCCCGGGTTATTTGCAGATAGGAAAATAAATAAAAAAAAAATTCGTTAACCCTCTTCTGGCGCAAACTGCTGTTTGCTCTGGATGAATCATGGTCCTTTGGCGACGCCAGGCTCCGGGAGAGCAAAGCACCGTGTCAGGGCCATGATCCGGGGTGGCC,0.322 ratio
TGCTCTTACATATGAGTGATAATTGGGCTGGATATAGAATTCTAGGTTGGAAATATTTTTTCTTTAAAATGTTGAAGTCACTGTCCTGTTTTTTGTTTGCTTTTTTGTGGGATTTTCTCCCTGTGTGCTATTGAGACTTCTGAATTCATTCTAATTCCTGACTGTGGCATGTGACTTGTTTTTCTCCTTCCCT,0.347 ratio
CATACAAGAAAATAACTGTAGGCACAACTGGCACAATTATATTAGTAATAATGATGGGATAAAAATATAAAGATGCATATGTAAATTGATCTGTGTAAACATGAATATAGTATTTGCCAAGTGACATAGACAAATATATTAAATAATATACTTTTGAATATTGGTATCAGAATCATAAAATCTTTAAAAATCA,0.463 ratio

# Sample 2 — technique: RNA Bind-n-Seq; molecule type: RNA; matrix: in vitro; tested at: not given; setting: RNA with constant flanks, ends assumed; relative to: input RNA pool; direction: higher = stronger binding
# Target: RING finger protein unkempt homolog, zinc fingers 1-6, GST-SBP tag (UNK, Homo sapiens, UniProt Q9C0B0, residues 30-357)
# Sequence of UniProt Q9C0B0 (30-357, looked up): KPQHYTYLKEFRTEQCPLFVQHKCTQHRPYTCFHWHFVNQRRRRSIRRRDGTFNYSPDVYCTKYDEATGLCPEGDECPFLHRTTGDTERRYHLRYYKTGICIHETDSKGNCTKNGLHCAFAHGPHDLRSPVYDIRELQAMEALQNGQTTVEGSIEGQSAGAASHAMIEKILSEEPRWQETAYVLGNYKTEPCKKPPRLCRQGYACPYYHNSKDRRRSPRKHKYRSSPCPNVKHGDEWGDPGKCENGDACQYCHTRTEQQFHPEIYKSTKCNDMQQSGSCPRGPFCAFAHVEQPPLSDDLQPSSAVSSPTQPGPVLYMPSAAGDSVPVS
# Constant ends, left off below: GGGAGUUCUACAGUCCGACGAUC … CAACAGAGGAUUGAGCAUCA
Strand,bound/input enrichment [ratio]
GAGUCAUCUGACUGGAUGAAGACUGUUCCAAGUUACAACCAAACAAAUAGCUCCAUGGACUUCCGAAAUUAUAUGAUGAGAGAUGAGACUCUGGAACCACUGCCCAAAAACUGGGAAAUG,0.347
AGACAUUUAUUCUUUCUUGGACCUCAGAUUUACCAGACAUCUCAUGGGUUUGUGGAUGCACUCCGAUGUUUGCAAUGAGCACUGUGGCUGGCAUGCCCCAGUGUUUUGGAUACCAAUGCA,0.352
CGGAAGUGAUCCCCUGCGUGGCUGGGCUGCUCGGGUUAGAUCGUCAGGAAAAGCCUAAAGAUCCGACUGUAAGAAAAGAAAAUAGAAGCCAUGUUUCGAAGACCUGUAUUACAGGUACUU,0.361
UGUAAGCUGCCAAGACUGUCUCUGAAUGGAGUCCGGUUUAAGCGGAUAUCAGGGACAUCCACCGCUUUCAAAAAUAUUGCUUCCAAAAUUGCCAAUGAGCUAAAGCUGUAACCCAGUAAU,0.143
AGCCCGCGGGCGCCUCAGGUAGAAGAAGAAAGGUGCCACUCCGGCAUGAAGACAGACUCGCUCCGUCGCCAGUCACUUAAGCUGAGUGCAUUGUGAUUUCCAAUAAUUGAGGCAGUGGUU,0.152
ACCCCCCUCUUUCUCCUUGGCUGCAGUGGGGCCUUUAUCCAGUGCCAGGGAGGAACAACACCGUUAAUUUUUUUCUAACCUUGCCACUUUGAGGGAAGGAAGGGUUGGGGGAAGGGCAAG,0.323
GGCCUGACAAAUUAUGCUGCAGCAUAUUGUACUGGCCUGCUGCUGGCCCGCAGGCUUCUCAACCGGUUUGGCAUGGACAAGAUCUAUGAAGGCCAAGUGGAGGUGACUGGUGAUGAAUAC,0.239
AUUGAGAACAGCUCUCCAAAUAGGAAUAGUAGUAAAAAAAAUAAGCAAAAUGAUAUUUGUACCGAAAAAACAGAAGUUAAAUCAUGUAAAGUAAAUGCUGCCAACCUUCCAGGUCCUAAA,71.2

# Sample 3 — technique: protein binding microarray; molecule type: double-stranded DNA, one strand shown; matrix: in vitro; tested at: not given; relative to: not given; direction: higher = stronger binding
# Target: Histone acetyltransferase KAT6A, both winged helices, GST fusion (KAT6A, Homo sapiens, UniProt Q92794, residues 1-181)
# Setting: 8-mer, flanks averaged, mean of 2 arrays, mostly near background
# Residues (chain): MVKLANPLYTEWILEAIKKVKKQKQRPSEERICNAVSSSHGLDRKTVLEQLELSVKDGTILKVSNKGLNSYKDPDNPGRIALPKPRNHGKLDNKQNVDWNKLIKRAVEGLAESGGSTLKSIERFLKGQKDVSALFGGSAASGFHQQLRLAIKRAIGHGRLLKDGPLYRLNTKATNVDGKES
Strand,E-score
GAGCTTTA,0.0139
AGTTTACG,0.046
AAATGGAA,-0.197
GGCACCCC,-0.0207
CTTATAAG,-0.0741
TAATAAAA,0.0406
GCGTCACC,0.156
AAATTGGA,-0.206
AGTTGATC,-0.06
AGATACGA,-0.0159
GAAGTTAA,-0.071
GCACTTCC,0.00673
CCATGAAG,-0.124
CGCCAATC,-0.0128
ATAAGGCC,0.121
CCAGCTGC,-0.0471

# Single results of other studies
Molecule,target,test,test system,setting,scale,quantity,value
"PhoQ, residues 284 288 289 292 302 303 SVHLDV","PhoP, residues 12 14 15 18 19 LHATL (Escherichia coli, UniProt P23836)","Sort-seq, refers to: YFP reporter",E. coli,"PhoQ-PhoP variant library, added: 10 µM Mg2+","relative to: high Mg2+ state, higher = stronger signaling",fold induction,0.957

# A few entries again (sample 2):
Strand,bound/input enrichment [ratio]
GGCCUGACAAAUUAUGCUGCAGCAUAUUGUACUGGCCUGCUGCUGGCCCGCAGGCUUCUCAACCGGUUUGGCAUGGACAAGAUCUAUGAAGGCCAAGUGGAGGUGACUGGUGAUGAAUAC,0.239
UGUAAGCUGCCAAGACUGUCUCUGAAUGGAGUCCGGUUUAAGCGGAUAUCAGGGACAUCCACCGCUUUCAAAAAUAUUGCUUCCAAAAUUGCCAAUGAGCUAAAGCUGUAACCCAGUAAU,0.143
